Measurements from different studies.
Numbered parts are unrelated; each lists some results of a single study. Substitutions count along the parent as printed.
UniProt P57078, sequence (whole entry, looked up): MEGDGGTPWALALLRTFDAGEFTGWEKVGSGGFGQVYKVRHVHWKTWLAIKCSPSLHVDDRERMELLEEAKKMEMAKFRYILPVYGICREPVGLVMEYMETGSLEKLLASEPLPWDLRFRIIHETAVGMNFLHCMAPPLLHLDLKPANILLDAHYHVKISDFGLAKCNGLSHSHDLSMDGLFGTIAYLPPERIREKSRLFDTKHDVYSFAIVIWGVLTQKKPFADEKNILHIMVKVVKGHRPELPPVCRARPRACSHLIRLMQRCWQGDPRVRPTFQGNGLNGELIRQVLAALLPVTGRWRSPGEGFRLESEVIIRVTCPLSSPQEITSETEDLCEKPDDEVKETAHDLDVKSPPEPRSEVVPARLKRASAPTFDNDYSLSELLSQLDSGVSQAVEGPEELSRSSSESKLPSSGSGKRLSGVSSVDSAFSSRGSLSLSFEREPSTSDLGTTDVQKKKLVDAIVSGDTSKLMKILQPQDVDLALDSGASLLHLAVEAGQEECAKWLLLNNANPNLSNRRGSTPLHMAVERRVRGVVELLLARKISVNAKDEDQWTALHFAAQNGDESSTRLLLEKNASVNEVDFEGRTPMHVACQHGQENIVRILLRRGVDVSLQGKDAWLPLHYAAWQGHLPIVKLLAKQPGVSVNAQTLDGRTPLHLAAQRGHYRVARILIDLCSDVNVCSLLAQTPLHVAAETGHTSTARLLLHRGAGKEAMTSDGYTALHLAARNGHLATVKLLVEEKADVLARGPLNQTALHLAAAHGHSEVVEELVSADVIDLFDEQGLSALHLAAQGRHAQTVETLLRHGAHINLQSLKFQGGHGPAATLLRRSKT
UniProt O75116, sequence (whole entry, looked up): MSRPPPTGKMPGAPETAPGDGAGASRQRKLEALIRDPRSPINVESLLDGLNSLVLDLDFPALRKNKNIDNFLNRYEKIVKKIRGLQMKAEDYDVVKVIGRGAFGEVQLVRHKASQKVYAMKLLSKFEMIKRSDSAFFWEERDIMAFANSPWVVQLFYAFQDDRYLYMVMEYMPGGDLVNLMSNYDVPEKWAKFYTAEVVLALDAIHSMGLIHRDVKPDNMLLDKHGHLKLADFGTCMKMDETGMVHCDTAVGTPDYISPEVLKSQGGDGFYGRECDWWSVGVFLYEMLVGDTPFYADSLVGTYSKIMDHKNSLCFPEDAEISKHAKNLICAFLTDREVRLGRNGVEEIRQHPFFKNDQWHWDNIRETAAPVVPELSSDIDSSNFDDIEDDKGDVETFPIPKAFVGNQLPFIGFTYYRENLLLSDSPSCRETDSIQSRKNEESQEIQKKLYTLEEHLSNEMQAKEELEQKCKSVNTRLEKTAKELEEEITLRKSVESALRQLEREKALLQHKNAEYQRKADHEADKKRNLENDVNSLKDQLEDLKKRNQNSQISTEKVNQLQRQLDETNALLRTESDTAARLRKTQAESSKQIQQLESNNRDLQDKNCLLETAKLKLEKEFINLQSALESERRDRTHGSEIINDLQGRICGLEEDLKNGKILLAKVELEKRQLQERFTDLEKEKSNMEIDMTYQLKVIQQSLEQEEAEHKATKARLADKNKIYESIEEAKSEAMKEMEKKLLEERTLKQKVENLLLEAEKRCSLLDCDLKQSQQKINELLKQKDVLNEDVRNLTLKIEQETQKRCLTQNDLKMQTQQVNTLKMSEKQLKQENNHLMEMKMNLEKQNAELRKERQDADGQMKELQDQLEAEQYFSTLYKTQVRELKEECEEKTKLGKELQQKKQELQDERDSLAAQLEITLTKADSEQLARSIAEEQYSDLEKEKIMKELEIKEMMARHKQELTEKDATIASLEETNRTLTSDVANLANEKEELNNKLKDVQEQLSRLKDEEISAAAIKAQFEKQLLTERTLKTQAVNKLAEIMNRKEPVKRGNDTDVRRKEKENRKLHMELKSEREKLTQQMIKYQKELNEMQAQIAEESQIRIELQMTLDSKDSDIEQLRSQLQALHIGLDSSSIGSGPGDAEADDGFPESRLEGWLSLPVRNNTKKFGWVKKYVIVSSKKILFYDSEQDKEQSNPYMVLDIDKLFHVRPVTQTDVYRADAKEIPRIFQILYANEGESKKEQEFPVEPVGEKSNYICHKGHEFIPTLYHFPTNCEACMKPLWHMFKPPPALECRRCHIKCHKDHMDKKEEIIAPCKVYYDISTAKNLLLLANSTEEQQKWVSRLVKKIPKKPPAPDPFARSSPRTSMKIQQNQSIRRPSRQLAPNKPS
UniProt Q96Q40, sequence (whole entry, looked up): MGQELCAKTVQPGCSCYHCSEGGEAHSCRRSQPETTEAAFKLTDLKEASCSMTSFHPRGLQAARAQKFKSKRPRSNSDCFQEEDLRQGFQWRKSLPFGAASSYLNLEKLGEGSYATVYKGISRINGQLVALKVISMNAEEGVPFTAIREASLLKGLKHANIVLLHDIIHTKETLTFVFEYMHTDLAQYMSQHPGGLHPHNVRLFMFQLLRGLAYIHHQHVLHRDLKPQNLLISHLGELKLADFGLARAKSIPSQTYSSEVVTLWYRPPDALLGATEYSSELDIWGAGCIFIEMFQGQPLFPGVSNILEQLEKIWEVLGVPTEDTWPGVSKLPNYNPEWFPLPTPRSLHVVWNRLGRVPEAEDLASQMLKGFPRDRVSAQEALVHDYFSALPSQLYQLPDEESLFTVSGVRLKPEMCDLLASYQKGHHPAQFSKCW
UniProt Q8IW41, sequence (whole entry, looked up): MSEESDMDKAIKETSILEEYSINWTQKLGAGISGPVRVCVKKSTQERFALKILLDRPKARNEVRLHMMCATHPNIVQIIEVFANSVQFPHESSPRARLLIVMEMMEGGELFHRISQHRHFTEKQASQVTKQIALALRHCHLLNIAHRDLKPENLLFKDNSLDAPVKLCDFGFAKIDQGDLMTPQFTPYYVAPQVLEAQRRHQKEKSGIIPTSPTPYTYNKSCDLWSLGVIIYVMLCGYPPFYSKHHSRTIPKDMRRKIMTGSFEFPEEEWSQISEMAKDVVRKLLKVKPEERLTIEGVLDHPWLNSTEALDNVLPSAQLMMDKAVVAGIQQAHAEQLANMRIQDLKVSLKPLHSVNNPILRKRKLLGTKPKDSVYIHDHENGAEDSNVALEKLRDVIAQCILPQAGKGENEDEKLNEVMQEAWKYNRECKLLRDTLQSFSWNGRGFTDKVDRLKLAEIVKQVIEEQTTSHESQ
UniProt Q9BUB5, sequence (whole entry, looked up): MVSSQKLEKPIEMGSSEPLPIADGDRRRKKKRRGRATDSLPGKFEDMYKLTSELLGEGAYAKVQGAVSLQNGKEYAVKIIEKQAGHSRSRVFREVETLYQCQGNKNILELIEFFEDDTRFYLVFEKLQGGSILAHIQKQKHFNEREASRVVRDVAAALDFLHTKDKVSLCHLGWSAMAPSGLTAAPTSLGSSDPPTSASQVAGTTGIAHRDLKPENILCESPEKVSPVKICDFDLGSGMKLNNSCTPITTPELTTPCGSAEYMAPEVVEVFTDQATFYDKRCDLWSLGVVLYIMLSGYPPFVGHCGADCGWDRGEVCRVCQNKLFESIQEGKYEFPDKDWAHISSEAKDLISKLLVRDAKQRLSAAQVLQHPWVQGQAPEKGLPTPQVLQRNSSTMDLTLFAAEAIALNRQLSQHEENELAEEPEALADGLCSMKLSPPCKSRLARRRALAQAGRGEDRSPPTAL
UniProt P49674, sequence (whole entry, looked up): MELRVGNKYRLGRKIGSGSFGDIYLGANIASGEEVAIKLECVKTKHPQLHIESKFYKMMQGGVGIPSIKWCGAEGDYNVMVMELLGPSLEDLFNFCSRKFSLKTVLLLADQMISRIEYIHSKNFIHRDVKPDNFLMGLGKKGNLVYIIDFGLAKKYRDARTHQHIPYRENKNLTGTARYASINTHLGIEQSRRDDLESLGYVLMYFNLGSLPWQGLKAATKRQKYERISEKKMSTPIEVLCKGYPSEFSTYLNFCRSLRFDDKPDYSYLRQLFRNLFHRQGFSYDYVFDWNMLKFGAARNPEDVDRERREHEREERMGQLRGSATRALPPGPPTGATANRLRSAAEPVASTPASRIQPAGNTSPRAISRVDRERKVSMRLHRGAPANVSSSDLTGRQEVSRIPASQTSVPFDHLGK
UniProt O14730, sequence (whole entry, looked up): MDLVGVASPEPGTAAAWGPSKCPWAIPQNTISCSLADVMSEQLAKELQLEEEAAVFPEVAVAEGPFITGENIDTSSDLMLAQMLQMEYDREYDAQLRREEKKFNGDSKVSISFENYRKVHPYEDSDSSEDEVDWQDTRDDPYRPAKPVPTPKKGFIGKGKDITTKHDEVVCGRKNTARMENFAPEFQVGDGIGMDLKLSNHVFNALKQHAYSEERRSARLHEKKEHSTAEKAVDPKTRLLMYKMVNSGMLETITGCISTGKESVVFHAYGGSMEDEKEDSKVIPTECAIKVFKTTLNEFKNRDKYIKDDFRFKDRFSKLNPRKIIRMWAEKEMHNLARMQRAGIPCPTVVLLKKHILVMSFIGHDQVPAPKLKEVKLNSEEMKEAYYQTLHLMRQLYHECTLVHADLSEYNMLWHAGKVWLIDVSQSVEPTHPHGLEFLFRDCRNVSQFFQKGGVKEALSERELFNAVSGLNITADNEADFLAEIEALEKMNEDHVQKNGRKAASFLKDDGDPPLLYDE

Set 1
Structure (SMILES): N#Cc1ccc(Nc2ccc3[nH]c(=O)[nH]c3c2)c(Cl)c1
Effect on: cell-free assay
Method: competition with immobilised ligand
Concentration: 1 µM
target	remaining binding
RIOK3 (Homo sapiens, UniProt O14730)	100%
TNNI3K (Homo sapiens, UniProt Q59H18)	65%
NEK4 (Homo sapiens, UniProt P51957)	100%
ROCK2 (Homo sapiens, UniProt O75116)	100%
CSNK1E (Homo sapiens, UniProt P49674)	94%
CDK15 (Homo sapiens, UniProt Q96Q40)	94%
FLT3 (Homo sapiens, UniProt P36888, D835V)	100%
RIPK4 (Homo sapiens, UniProt P57078)	89%
FLT3 (Homo sapiens, UniProt P36888, ITD)	100%
MAPKAPK5 (Homo sapiens, UniProt Q8IW41)	92%
CDK2 (Homo sapiens, UniProt P24941)	93%
MKNK1 (Homo sapiens, UniProt Q9BUB5)	100%
MAPKAPK2 (Homo sapiens, UniProt P49137)	100%
Macrophage colony-stimulating factor 1 receptor, autoinhibited (CSF1R, Homo sapiens, UniProt P07333)	100%
PKN2 (Homo sapiens, UniProt Q16513)	76%
WNK4 (Homo sapiens, UniProt Q96J92)	100%

Set 2
Species: mouse
Medium: microsomes or S9
Concentration: 2 µM
Time: 0.5 h
SMILES	remaining compound
Cc1ccc2nc3c(cc(C(=O)NCCCn4ccnc4)n3C)c(=O)n2c1	28%
CN1CCN(c2ccc(C(=O)Nc3c[nH]c4ncnc(-c5cnn(C6CCN(C(=O)OC(C)(C)C)CC6)c5)c34)cc2)CC1	> 100%
c1ccc(OCC2CN(c3ccc4nnc(-c5ccsc5)n4n3)CCO2)cc1 (centres unmarked)	7.64%

Set 3
Target: CREB3L1, bZIP domain (human)
Method: DHFR protein complementation
Medium: yeast
Setting: single substitutions, most at no-binding floor
Reference: wild-type JUN-FOS pair
Direction: higher = stronger binding
Parent: JUN, bZIP domain (human); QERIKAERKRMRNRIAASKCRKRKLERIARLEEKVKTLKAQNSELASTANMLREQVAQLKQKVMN; partner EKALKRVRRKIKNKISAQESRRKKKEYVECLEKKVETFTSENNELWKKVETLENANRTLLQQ
Change	binding fitness [natural log]
A40Y	-1.46
E54M	-1.43
L59P	-1.42
L59H	-1.44
E33M	-1.19
E54W	-1.49
N42E	-1.38
T37P	-1.5

Set 4
Target: Ras GTPase-activating protein-binding protein 1, full length (G3BP1, Homo sapiens, UniProt Q13283)
UniProt Q13283, sequence (whole entry, looked up): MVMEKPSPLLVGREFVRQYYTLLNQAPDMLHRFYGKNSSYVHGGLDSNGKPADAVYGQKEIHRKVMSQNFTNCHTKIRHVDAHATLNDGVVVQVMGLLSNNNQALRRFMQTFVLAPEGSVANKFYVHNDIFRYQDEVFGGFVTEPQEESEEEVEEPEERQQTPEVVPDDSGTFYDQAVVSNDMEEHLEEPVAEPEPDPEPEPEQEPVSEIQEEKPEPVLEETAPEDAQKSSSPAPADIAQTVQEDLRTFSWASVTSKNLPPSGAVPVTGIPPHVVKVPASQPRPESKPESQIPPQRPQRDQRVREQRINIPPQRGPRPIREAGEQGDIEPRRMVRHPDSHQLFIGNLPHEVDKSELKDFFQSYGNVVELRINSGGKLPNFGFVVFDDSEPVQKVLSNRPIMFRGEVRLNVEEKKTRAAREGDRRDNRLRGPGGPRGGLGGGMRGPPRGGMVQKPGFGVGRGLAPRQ
Method: RNA Bind-n-Seq
Form: RNA
Medium: in vitro
Concentration: 200 nM
Setting: whole 134-nt RNA, ends assumed
Together with: 150 mM KCl
Reference: input library
Direction: higher = stronger binding
Shared flanks, not repeated: GGGAGUUCUACAGUCCGACGAUC … UGGAAUUCUCGGGUGUCAAGG
Sequence	log2 enrichment
CCUGUGCUACACAUCGUAUGUACCGAAUCGGGGUUUUUUGGGGUUUUUUGGUUUUUUGGGGAAAGUAUUAUGUUACGCCGUUCGGAUCUG	-0.603
UGGCCCUGGUGGCAUGCGGGGAGGAAGAGGUGGCCUCAUGGACCGUGGUGGUCCCGGUGGAAUGUUCAGAGGUGGCCGUGGUGGAGACAG	0.382
UCAAGUCCUGUGCUACACAUCGUAUGUACCGAAUCGGGGUUGGGGUUGGUUGGGGAAAGUAUUAUGUUACGCCGUUCGGAUCUGCACUUC	0.422
UCCUGUGCUACACAUCGUAUGUACCGAAUCAAACCCCCCCAAACCCCCAAAUUUUUAAAAAAGUAUUAUGUUACGCCGUUCGGAUCUGCA	-0.00108
CACAGACAACACGCACCCACACAGACACAGAGGGAAGGGGUUGGGAUGGGGACAGGGUGCACAGAAAGGCGGGGUAGGACCCCAGCCCCU	1.62
AAGUCCUGUGCUACACAUCGUAUGUACCGAAUCGGCCCCGGGCCCCGGGCCCCGGGAAAGUAUUAUGUUACGCCGUUCGGAUCUGCACUU	-1.2
AAGUCCUGUGCUACACAUCGUAUGUACCGAAUCGGGGUUUUGGUUUUGGGGUUUUGGAAAGUAUUAUGUUACGCCGUUCGGAUCUGCACU	-0.763
CACAGACAACACGCAAACACACAGACACAGAGGGAAGGGGUUGGGAUGGGGACAGGGUGCACAGCAGGGCGGGGUAGGACCCCAGCCCCU	1.36

For quick reference, copied from above (set 1):
target	remaining binding
RIPK4 (Homo sapiens, UniProt P57078)	89%
FLT3 (Homo sapiens, UniProt P36888, D835V)	100%
ROCK2 (Homo sapiens, UniProt O75116)	100%
PKN2 (Homo sapiens, UniProt Q16513)	76%
